Measured values gathered from unrelated publications.
Lines come from different studies, so protocols differ. Several values in a cell are separate wells, animals, samples, runs or records.
Target: Cytochrome P450 2B6 (CYP2B6, Homo sapiens, UniProt P20813)
One construct used (P20813 1-491): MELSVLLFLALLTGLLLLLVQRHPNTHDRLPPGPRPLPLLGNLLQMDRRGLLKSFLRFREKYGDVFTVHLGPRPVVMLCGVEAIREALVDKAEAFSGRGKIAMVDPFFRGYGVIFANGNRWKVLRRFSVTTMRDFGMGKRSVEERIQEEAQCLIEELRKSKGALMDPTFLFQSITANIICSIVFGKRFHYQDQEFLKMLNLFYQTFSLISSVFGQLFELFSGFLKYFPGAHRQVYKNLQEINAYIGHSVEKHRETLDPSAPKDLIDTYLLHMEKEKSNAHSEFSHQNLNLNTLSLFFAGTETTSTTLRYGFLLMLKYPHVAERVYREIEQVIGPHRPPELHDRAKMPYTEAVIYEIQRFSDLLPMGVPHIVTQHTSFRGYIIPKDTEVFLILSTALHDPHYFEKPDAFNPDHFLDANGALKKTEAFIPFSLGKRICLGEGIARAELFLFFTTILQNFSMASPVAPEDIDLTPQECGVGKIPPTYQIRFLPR

| Structure (SMILES) | assay | system | conditions | quantity | value |
| --- | --- | --- | --- | --- | --- |
| CCOc1cc(-c2nncn2C)ccc1Nc1ncc2cc(C)nc(NCC(C)(C)C)c2n1 | enzyme activity, inhibitor | – | – | IC50 | > 50 µM |
| CC(=O)N1CCN(c2ccc(OCC3COC(Cn4ccnc4)(c4ccc(Cl)cc4Cl)O3)cc2)CC1 (stereo not drawn) | – | pooled human liver microsomes | 20 min | IC50 | 2.94 µM |
| N#C[C@H](C[C@@H]1CCCNC1=O)NC(=O)[C@H](CC1CC1)NC(=O)c1cc2cccc(Cl)c2[nH]1 | inhibitor | – | – | IC50 | > 100 µM |
| NC/C(=C\F)COc1cccc(Cn2c(=S)[nH]c(=O)c3[nH]cnc32)c1 | enzyme activity, inhibitor | – | CYP2B6 screen | IC50 | > 10 µM |
| OCc1cc([C@@H](O)CNCCCCCCOCCOCc2c(Cl)cccc2Cl)ccc1O | inhibitor | – | 20 min | IC50 | 7.27 µM |
| N#Cc1ccc([C@H]2CCc3cncn32)c(F)c1 | inhibitor | – | pH 7.4 | IC50 | ≥ 20 µM and 20 µM |
| Clc1ccc(CCC(Cn2ccnc2)Sc2c(Cl)cccc2Cl)cc1 (stereo not drawn) | inhibitor | – | 20 min | IC50 | 0.06 µM |
| Cn1cncc1[C@@](N)(c1ccc(Cl)cc1)c1ccc2c(c1)c(-c1cccc(Cl)c1)cc(=O)n2C | – | – | – | Ki | 2.9 µM |
| Cc1nc(-c2cnc(NC(C)C)n(C)c2=O)ccc1Oc1ccnc(-c2cnn(C)c2)c1 | metabolism-dependent inhibition, inhibitor | – | 30 min preincubation with NADPH | IC50 | > 100 µM |
